Assay results of several laboratories.
Every numbered part comes from another study and shows a few of its results, in no order.
Sequence of UniProt P10721 (whole entry, unmodified, looked up): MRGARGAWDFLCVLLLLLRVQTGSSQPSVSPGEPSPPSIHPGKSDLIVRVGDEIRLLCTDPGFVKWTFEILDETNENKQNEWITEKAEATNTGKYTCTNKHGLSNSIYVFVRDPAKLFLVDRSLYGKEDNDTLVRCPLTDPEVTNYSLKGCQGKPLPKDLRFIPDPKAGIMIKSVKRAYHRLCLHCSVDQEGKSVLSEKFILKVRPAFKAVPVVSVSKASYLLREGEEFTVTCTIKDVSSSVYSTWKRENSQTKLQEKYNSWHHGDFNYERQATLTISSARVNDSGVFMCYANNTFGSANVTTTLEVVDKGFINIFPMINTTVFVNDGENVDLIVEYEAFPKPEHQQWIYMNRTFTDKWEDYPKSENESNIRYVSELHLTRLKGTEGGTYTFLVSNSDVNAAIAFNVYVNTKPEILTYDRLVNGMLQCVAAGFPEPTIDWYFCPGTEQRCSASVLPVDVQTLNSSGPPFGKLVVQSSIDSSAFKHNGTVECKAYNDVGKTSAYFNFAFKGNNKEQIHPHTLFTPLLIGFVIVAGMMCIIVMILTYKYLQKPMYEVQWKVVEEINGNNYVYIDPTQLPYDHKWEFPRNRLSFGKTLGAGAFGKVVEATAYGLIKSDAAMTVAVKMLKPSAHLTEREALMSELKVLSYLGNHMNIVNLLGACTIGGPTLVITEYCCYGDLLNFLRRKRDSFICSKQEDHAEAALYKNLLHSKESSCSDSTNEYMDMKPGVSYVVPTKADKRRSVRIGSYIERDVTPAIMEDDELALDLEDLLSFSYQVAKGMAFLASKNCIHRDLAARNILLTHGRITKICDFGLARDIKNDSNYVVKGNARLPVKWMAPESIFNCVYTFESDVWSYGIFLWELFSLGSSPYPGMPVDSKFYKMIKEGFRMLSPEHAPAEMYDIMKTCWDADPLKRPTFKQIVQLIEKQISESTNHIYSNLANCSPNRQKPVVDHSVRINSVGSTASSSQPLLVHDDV
Sequence of UniProt Q9HCP0 (whole entry, looked up): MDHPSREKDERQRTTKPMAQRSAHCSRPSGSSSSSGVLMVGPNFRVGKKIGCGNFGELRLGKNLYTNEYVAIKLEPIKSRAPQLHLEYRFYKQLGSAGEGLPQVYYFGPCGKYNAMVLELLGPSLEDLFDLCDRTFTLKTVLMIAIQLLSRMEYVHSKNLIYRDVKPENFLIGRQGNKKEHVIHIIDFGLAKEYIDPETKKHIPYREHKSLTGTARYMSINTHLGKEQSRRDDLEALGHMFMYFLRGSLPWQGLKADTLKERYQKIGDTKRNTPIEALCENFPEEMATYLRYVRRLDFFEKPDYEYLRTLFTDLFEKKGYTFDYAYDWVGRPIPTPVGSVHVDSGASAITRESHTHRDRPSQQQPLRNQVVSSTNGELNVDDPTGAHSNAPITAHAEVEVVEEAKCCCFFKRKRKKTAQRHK
Sequence of UniProt Q86SM5 (whole entry, looked up): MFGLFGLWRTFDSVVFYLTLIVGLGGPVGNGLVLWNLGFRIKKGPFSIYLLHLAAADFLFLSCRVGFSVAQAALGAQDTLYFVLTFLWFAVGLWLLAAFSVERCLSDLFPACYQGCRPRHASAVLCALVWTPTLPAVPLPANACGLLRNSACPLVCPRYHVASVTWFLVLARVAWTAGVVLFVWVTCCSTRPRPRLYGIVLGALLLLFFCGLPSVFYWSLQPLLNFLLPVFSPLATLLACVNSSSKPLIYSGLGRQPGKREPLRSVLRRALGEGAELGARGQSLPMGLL
Sequence of UniProt O14757 (whole entry, looked up): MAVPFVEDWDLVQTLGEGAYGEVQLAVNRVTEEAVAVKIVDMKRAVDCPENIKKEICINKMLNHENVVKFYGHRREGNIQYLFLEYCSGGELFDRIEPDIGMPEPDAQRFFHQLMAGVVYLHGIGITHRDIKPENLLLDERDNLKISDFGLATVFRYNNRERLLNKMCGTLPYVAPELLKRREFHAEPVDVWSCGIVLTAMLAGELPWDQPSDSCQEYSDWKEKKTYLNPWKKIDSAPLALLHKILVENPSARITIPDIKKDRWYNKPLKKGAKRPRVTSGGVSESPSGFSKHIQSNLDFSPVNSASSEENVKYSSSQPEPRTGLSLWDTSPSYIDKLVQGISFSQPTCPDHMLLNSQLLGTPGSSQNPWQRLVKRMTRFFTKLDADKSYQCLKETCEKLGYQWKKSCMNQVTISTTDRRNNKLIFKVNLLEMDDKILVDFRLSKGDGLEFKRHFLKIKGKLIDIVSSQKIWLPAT
Sequence of UniProt Q9Y2H1 (whole entry, looked up): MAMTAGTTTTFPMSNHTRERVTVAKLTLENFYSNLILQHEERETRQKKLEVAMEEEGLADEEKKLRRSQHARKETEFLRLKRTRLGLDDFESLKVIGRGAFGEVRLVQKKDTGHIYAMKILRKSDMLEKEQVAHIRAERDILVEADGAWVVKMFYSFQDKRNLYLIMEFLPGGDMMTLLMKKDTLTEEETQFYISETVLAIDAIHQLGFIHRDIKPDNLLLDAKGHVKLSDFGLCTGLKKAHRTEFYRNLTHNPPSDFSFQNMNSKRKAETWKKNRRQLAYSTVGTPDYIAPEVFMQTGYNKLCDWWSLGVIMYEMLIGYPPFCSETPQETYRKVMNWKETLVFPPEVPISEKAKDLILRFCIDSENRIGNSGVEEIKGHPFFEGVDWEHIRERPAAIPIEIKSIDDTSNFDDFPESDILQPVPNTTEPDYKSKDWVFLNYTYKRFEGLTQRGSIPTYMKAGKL
Sequence of UniProt P22455 (whole entry, looked up): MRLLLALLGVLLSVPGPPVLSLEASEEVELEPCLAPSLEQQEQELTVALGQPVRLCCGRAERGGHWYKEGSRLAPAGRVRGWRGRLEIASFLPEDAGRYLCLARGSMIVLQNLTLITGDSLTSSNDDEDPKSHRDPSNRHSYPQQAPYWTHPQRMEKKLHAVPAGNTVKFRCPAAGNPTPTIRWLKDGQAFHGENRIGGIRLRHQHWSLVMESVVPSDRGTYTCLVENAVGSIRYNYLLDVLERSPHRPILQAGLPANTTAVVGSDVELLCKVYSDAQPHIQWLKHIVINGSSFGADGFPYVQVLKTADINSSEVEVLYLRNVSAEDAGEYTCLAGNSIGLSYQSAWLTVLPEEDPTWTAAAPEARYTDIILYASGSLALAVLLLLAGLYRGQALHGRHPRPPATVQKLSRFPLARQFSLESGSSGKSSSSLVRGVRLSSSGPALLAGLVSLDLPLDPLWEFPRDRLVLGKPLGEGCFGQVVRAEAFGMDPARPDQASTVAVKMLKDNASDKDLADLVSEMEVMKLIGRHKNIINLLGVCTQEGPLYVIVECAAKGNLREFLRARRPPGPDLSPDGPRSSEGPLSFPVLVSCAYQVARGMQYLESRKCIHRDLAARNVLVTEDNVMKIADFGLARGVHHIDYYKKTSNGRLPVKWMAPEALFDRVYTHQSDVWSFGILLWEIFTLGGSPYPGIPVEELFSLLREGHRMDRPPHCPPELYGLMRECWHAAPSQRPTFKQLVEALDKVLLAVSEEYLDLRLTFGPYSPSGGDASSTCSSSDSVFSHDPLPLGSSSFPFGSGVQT
Sequence of UniProt Q99679 (whole entry, looked up): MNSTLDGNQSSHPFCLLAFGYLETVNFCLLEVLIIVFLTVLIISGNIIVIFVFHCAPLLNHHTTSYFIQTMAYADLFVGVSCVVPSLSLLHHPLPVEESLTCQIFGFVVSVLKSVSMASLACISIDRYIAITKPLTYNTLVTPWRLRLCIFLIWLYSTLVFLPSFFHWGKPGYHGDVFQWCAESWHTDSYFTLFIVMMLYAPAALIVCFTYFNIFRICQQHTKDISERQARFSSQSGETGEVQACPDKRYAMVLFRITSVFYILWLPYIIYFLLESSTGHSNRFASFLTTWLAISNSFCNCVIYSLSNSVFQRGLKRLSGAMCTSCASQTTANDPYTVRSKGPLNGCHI
Sequence of UniProt P04049 (whole entry, looked up): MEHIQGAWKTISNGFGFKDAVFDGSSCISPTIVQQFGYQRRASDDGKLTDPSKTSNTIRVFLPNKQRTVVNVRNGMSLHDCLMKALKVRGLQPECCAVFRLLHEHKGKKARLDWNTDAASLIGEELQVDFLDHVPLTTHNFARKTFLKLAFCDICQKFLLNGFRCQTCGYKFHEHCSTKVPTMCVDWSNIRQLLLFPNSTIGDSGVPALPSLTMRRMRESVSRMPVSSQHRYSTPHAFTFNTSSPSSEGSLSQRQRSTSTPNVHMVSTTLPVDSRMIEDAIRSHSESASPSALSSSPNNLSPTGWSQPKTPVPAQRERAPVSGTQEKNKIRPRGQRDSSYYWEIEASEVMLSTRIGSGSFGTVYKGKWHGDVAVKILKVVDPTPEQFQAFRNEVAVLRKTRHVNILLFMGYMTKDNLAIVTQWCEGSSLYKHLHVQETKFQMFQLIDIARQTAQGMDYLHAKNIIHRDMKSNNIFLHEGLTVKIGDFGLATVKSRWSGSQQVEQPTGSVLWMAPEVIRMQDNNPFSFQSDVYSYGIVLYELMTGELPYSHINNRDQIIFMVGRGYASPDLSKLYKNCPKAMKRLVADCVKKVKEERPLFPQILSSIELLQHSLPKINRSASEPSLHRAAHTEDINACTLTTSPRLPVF

Set 1
Compound: NC(N)=NC(=O)c1nc(Cl)c(N2CCCCCC2)nc1N
Effect on: β-arrestin recruitment
Mode: agonist
Technique: PRESTO-Tango
Concentration: 10 µM
Baseline: untreated
It gave 1 for “fold over basal” (G protein-coupled receptor 88 (Homo sapiens, UniProt Q9GZN0)).
HTR1A (Homo sapiens, UniProt P08908) — “fold over basal”: 1.45.
The “fold over basal” was 0.93 (Probable G-protein coupled receptor 82 (GPR82, Homo sapiens, UniProt Q96P67)).
For GPR35 (Homo sapiens, UniProt Q9HC97): “fold over basal” read 0.72.
The “fold over basal” was 0.85 (Mas-related G-protein coupled receptor member G (MRGPRG, Homo sapiens, UniProt Q86SM5)).
HTR1F (Homo sapiens, UniProt P30939) — “fold over basal”: 0.65.
Probable G-protein coupled receptor 21 (GPR21, Homo sapiens, UniProt Q99679) — “fold over basal”: 1.08.

Set 2
Target: Calcium/calmodulin-dependent protein kinase type II subunit alpha (CAMK2A, Homo sapiens, UniProt Q9UQM7)
Sequence of UniProt Q9UQM7 (whole entry, looked up): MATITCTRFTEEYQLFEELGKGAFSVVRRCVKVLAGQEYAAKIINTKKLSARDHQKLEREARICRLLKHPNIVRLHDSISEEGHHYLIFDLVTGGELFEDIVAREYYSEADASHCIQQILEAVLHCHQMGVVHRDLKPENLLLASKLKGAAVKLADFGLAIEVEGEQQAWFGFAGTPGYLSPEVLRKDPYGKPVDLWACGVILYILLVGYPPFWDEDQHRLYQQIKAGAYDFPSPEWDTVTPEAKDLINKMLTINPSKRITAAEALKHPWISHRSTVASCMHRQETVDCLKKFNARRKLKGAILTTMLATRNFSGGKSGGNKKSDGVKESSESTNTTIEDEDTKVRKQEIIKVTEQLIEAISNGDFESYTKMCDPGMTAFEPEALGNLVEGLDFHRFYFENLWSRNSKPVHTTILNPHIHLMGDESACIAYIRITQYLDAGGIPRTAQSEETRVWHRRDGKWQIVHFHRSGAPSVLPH
Effect on: enzyme activity
Mode: inhibitor
Concentration: 10 µM
With CC1(C)CC[C@]2(CO)CC[C@]3(C)C(=CC[C@@H]4[C@@]5(C)CC[C@H](O)C(C)(C)[C@@H]5CC[C@]43C)[C@@H]2C1 the inhibition was -1%.
The inhibition of O=c1cc(-c2ccc(O)cc2)oc2cccc(O)c12 is reported as -1%.
Oc1cc(O)c2ccc(-c3ccc(O)c(O)c3)[o+]c2c1 gave an inhibition of 3%.
The inhibition of C[C@@H]1C[C@H]2[C@@H]3CCC4=CC(=O)C=C[C@]4(C)[C@@]3(F)[C@@H](O)C[C@]2(C)[C@@]1(O)C(=O)CO is reported as -1%.
With CCOc1ccc2nc(SCCN3CCOCC3)[nH]c2c1 the inhibition was -9%.
With C[C@@]12C=Cc3occc3[C@H]1CC[C@@]13C[C@@H](CC[C@H]12)[C@@](O)(CO)C3 the inhibition was -57%.

Set 3
Target: Diamine acetyltransferase 1 (Homo sapiens, UniProt P21673)
Mode: inhibitor
Concentration: 10 µM
Baseline: control
Target sequence (P21673 1-171): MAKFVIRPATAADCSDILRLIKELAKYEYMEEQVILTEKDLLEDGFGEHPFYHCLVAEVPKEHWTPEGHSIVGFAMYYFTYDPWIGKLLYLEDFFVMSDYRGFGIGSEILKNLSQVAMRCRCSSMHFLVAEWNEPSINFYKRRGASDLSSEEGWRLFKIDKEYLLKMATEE
With CC1(C)CC[C@]2(C(=O)O)CC[C@]3(C)C(=CC[C@@H]4[C@@]5(C)CC[C@H](O)C(C)(C)[C@@H]5CC[C@]43C)[C@@H]2C1 the remaining activity was 94.2%.
With C[C@H]1[C@H](C)CC[C@]2(C)CC[C@]3(C)C(=CC[C@@H]4[C@@]5(C)CC[C@H](O)C(C)(C)[C@@H]5CC[C@]43C)[C@H]12 the remaining activity was 120%.
C=C(CC[C@@H](C(=O)O)[C@H]1[C@H](O)C[C@@]2(C)C3=C(CC[C@]12C)[C@@]1(C)CC[C@H](OC(C)=O)C(C)(C)[C@@H]1CC3)C(C)C gave a remaining activity of 99.8%.
For O=C(/C=C/c1ccc(O)c(O)c1/C=C/c1ccc(O)c(O)c1)O[C@H](Cc1ccc(O)c(O)c1)C(=O)O, the remaining activity was 73.9%.
With C/C=C(/C)C(=O)O[C@H]1Cc2cc3ccc(=O)oc3cc2OC1(C)C the remaining activity was 121%.
For CCCCCCCCCCCO, the remaining activity was 91.7%.

Set 4
Cell line: HaCaT
Concentration: 100 µM
Time: 60 h
For CCC(=O)NCC[C@@H]1CCc2ccc3c(c21)CCO3, the viability was 131%.
For COc1cc(NS(=O)(=O)c2ccc(N)cc2)ncn1, the viability was 115%.
COc1cc(C(=O)NC2CCCNC2)cc(OC)c1OC (stereo not shown) gave a viability of 134%.
O=C(O)c1cccnc1Nc1cccc(C(F)(F)F)c1 gave a viability of 120%.
For O=c1cc(-c2ccc(O)cc2)oc2cc(O)cc(O)c12, the viability was 19.6%.
Cc1ncc([N+](=O)[O-])n1CCO gave a viability of 131%.

Set 5
SMILES: Cc1nc(Cc2cccc(C(F)(F)F)c2)sc1-c1ccc(C(N)=O)nc1
Technique: competition with immobilised ligand
Concentration: 1 µM
For RAF1 (Homo sapiens, UniProt P04049); cell-free assay: remaining binding read 70%.
The remaining binding was 100% (CILK1 (Homo sapiens, UniProt Q9UPZ9); binding).
For PLK3 (Homo sapiens, UniProt Q9H4B4); cell-free assay: remaining binding read 94%.
For KIT (Homo sapiens, UniProt P10721, V559D/V654A); cell-free assay: remaining binding read 83%.
STK38L (Homo sapiens, UniProt Q9Y2H1); binding — remaining binding: 44%.
It gave 90% for remaining binding (LATS2 (Homo sapiens, UniProt Q9NRM7); cell-free assay).
EPHB6 (Homo sapiens, UniProt O15197); cell-free assay — remaining binding: 100%.
The remaining binding was 91% (CAMK2A (Homo sapiens, UniProt Q9UQM7); cell-free assay).
FLT4 (Homo sapiens, UniProt P35916); cell-free assay — remaining binding: 100%.
RET (Homo sapiens, UniProt P07949, V804M); cell-free assay — remaining binding: 88%.
The remaining binding was 39% (CDC42BPB (Homo sapiens, UniProt Q9Y5S2); binding).
For EGFR (Homo sapiens, UniProt P00533, L861Q); cell-free assay: remaining binding read 100%.
For NTRK2 (Homo sapiens, UniProt Q16620); cell-free assay: remaining binding read 84%.
It gave 100% for remaining binding (FGFR4 (Homo sapiens, UniProt P22455); cell-free assay).
For Tyrosine-protein kinase ABL1, phosphorylated (ABL1, Homo sapiens, UniProt P00519, M351T); cell-free assay: remaining binding read 100%.
The remaining binding was 41% (NEK1 (Homo sapiens, UniProt Q96PY6); binding).
KIT (Homo sapiens, UniProt P10721, L576P); cell-free assay — remaining binding: 89%.
SRMS (Homo sapiens, UniProt Q9H3Y6); cell-free assay — remaining binding: 77%.
It gave 63% for remaining binding (MET (Homo sapiens, UniProt P08581); cell-free assay).
It gave 100% for remaining binding (CHEK1 (Homo sapiens, UniProt O14757); cell-free assay).
For LRRK2 (Homo sapiens, UniProt Q5S007, G2019S); cell-free assay: remaining binding read 82%.
The remaining binding was 100% (Ribosomal protein S6 kinase alpha-2, C-terminal kinase domain (RPS6KA2, Homo sapiens, UniProt Q15349); cell-free assay).
MAP3K5 (Homo sapiens, UniProt Q99683); cell-free assay — remaining binding: 100%.
CSNK1G1 (Homo sapiens, UniProt Q9HCP0); cell-free assay — remaining binding: 97%.

Excerpt of the above (set 5):
It gave 100% for remaining binding (FGFR4 (Homo sapiens, UniProt P22455); cell-free assay).
For Tyrosine-protein kinase ABL1, phosphorylated (ABL1, Homo sapiens, UniProt P00519, M351T); cell-free assay: remaining binding read 100%.
The remaining binding was 41% (NEK1 (Homo sapiens, UniProt Q96PY6); binding).
KIT (Homo sapiens, UniProt P10721, L576P); cell-free assay — remaining binding: 89%.
SRMS (Homo sapiens, UniProt Q9H3Y6); cell-free assay — remaining binding: 77%.
It gave 63% for remaining binding (MET (Homo sapiens, UniProt P08581); cell-free assay).
